Measured values gathered from unrelated publications.
Compare with care: the assays were run in different laboratories. Several values in a cell are separate wells, animals, samples, runs or records. Numbers after ± are the reported error.

SMILES	test	test system	conditions	scale	quantity	result
CNCCOC12CC3(C)CC(C)(CC(Cn4ncc(-c5ccc(N6CCc7cccc(C(=O)Nc8nc9ccccc9s8)c7C6)nc5C(=O)O)c4C)(C3)C1)C2	–	beagle dog, male, anaesthetised	intravenous bolus, 0.03 mg/kg, 90 min	reference: baseline	QTcV interval change	13 ms
Cn1c(C(F)(F)F)cc(=O)n(-c2cc(Oc3cccnc3OCC(=O)O)c(Cl)cc2F)c1=O	–	beagle dog, male, plasma	oral capsule, 100 mg/kg/day epyrifenacil, day 1, 90-day study	–	Tmax	5.5 h
Cc1nc(-c2ccc(OCC(C)C)c(C#N)c2)sc1C(=O)O	–	healthy Chinese subjects	oral, 40 mg, fed, single dose	–	subjects with grade 2 AEs	2.5%
Cl.[2H]C([2H])([2H])CC(=O)c1cnc(NC(=O)C2CC2)cc1Nc1cccc(-c2ncn(C([2H])([2H])[2H])n2)c1OC	geometric mean	human	oral, 10 mg single dose, fasted, liquid	–	elimination rate constant	2.08e-05 s⁻¹
C[C@@H](Oc1ccc(S(C)(=O)=O)cc1C(=O)N1C[C@@H]2C[C@]2(c2cc(C(F)(F)F)on2)C1)C(F)(F)F	–	human	oral plus intravenous microtracer, dose not given	–	subjects with related somnolence	16.7%
Cc1ccc(Sc2ccccc2N2CCNCC2)c(C)c1	measured: blood creatine phosphokinase increased	healthy adult men	oral, 5 mg daily, 12 days	–	participants with TEAE	0%
COc1cccc(OC)c1-c1cc(C(=O)NC2(C(=O)O)C3CC4CC(C3)CC2C4)nn1-c1ccc(C(=O)N(C)CCCN(C)CCCN(C)C(=O)CN2CCN(CC(=O)[O-])CCN(CC(=O)[O-])CCN(CC(=O)[O-])CC2)cc1C(C)C.[177Lu+3] (stereo not shown)	–	mouse, HT-29 xenograft, liver	72 h post injection	–	tissue uptake	0.34 %ID/g
Cc1cc(C(=O)NC(C)(C)COc2cccc3c2C(N)=NS(=O)(=O)N3)cc(C)n1	LC-MS metabolite profiling	Sprague-Dawley rat, both sexes, plasma	oral, 100 mg/kg of parent drug, 2 (unit not given)	higher = more metabolite	plasma peak area	536000 a.u.
O=C(OC(C(F)(F)F)C(F)(F)F)N1CCN(Cc2cccc(Oc3ccccc3)c2)CC1	PET blocking study	rhesus monkey, brain FCX	0.1 mg/kg, compound pretreatment, added: [18F]T-401 tracer	–	k2	0.052 min⁻¹
Cc1nc2cccc(OCC(C)(C)C(=O)NC(C)C)c2c(N)c1C(=O)O	–	male Swiss albino CD-1 mouse, bone marrow	oral, 2000 mg/kg, 36 h	–	micronucleated PCE per 14000 PCE	8
O=C(O)CCCOc1ccc([18F])cc1-c1cc(-c2ccccc2C(F)(F)F)n(-c2ccccc2)n1	gamma counting	male ddY mice, spleen	intravenous, 2.1 MBq, 15 min	–	radioactivity uptake	0.2 ± 0.05 SUV
CNC(=O)c1ccc(-c2cnc3ncc(Cc4ccc5ncccc5c4)n3n2)cc1F	measured: Pyrexia	cancer patients	oral, dose not given, dose escalation, grade 3-4	–	patients with adverse event	0%
O=S(=O)(c1ccc(-c2ccc3nccc(Nc4ccncn4)c3c2)cc1)N1CCOCC1	–	female BALB/c mice, brain	intraperitoneal, 10 mg/kg, 24 h, mean, below LLOQ as zero	–	brain concentration	0 µg/mL
FC(F)(F)c1ccc(CNc2ccc(Cc3c[nH]c4ncc(Cl)cc34)cn2)cn1	measured: aspartate aminotransferase increased	patients with advanced solid tumours	oral, dose not given, grade 3 and 4, possibly related to drug	–	adverse event incidence	7%
CCC(CC)C(=O)Oc1cccc(C(O)CCN)c1.O=CO (stereo not shown)	scotopic ERG	BALB/cJ mice	intraperitoneal, 10 mg/kg, 1 h dark adaptation, added: 10,000 lx photobleach, 10 min	–	ERG a-wave amplitude	32 µV and 11 µV and 28 µV and 25 µV and 7 µV and 15 µV
COc1cc2[nH]c(C)c(-c3ccc(CO)cc3)c(=O)c2cc1Cl	–	PAMPA	pH 7.4	–	Papp	< 50 nm/s
Cc1c(-c2ccc(N3CCc4cccc(C(=O)Nc5nc6ccccc6s5)c4C3)nc2C(=O)O)cnn1CC12CC3(C)CC(C)(C1)CC(OCCNCC[C@H](O)CO)(C3)C2	–	beagle dog, male, anaesthetised	intravenous infusion, 0.3 mg/kg/min, 105 min	reference: vehicle	mean arterial pressure change	-35%
CCN1/C(=C/C(C)=O)Sc2ccc(F)cc21	–	cynomolgus monkey	oral, 100 mg/kg, 0.5 h post-dose	–	diastolic blood pressure	78 ± 4 mmHg
CC/C(=C(\c1ccccc1)c1ccc(OCCN(C)C)cc1)c1ccccc1	–	male Hartley guinea pigs, anaesthetized	intravenous, 30 mg/kg over 10 min, after infusion	–	mean blood pressure	28 ± 0.4 mmHg
COc1ccnc(C(=O)NC(CO)C(=O)O)c1O (racemic)	aerobic dark soil incubation	silt loam soil	20 °C, modelling endpoint	–	DT50	1000 days

SMILES	test	test system	conditions	scale	quantity	result
C=CC(=O)N1CCC(c2ccc(C(N)=O)c(-c3ccc(Oc4ccccc4)cc3)n2)CC1	serious adverse event Asthenia	patients with relapsed/refractory MCL	oral	–	incidence	0.9%
C[C@@H](O)CCOC(=O)C[C@@H](C)O	–	human	oral drink, 60 min post dose, mean	–	mean arterial pressure	80 mmHg
COc1ccc(C[C@@H](C)[C@@H](C)Cc2ccc(OC)c(OC)c2)cc1OC	–	beagle dog female, plasma	oral, 1000 mg/kg/day, day 28, median	–	Tmax	1 h
Cc1cccc(CNC(=O)c2cn(CCNC(=O)c3ccccc3Sc3c([N+](=O)[O-])ncn3C)c3cc4c(cc3c2=O)OCO4)n1	–	human, whole blood	1 µM, 1.5 h	–	remaining compound	89.6%
COc1ccc2c(c1)CCc1c(C(=O)NCCc3nc4cc(C)ccc4[nH]3)n[nH]c1-2	–	sheep erythrocytes	1 h, pH 7.5	–	maximum haemolysis	29.9%
C[C@@H]1CN(c2c(F)c(N)c3c(=O)c(C(=O)O)cn(C4CC4)c3c2F)C[C@H](C)N1	–	male Hartley guinea pigs, anaesthetized	intravenous, 10 mg/kg group, baseline before infusion	–	mean blood pressure	37 ± 0.2 mmHg
COc1cc2[nH]c(C)c(-c3cc4ccccc4o3)c(=O)c2cc1Cl	–	PAMPA	pH 7.4	–	Papp	730 nm/s
CSc1nc(O)n2nccc2n1	–	sheep erythrocytes	1 h, pH 7.5	–	maximum haemolysis	1.8%
O=C(O)c1c(O)c(-c2ccccc2)nc2ccccc12	–	–	–	–	pKa (basic)	< 2
N#CC(Cc1ccc(O)cc1)c1ccc(O)cc1 (stereo not shown)	–	rat, Long-Evans, female, serum	subcutaneous, 2 mg/kg single dose	–	aglycone share of Cmax	36%
COCc1cc(C(=O)Nc2cc([C@H]3CC[C@@H](OC(=O)NC(C)C)C3)[nH]n2)n(C)n1	–	OVCAR-3 xenograft, NOD/SCID gamma mice, plasma	oral, 125 twice daily, PK/PD study	–	unbound C24h	0.141 µM
CC(C)(C(=O)N1CCOc2c(C#N)cncc2C1)C(F)F	measured: Vascular disorders	human	oral, 20 mg once daily, 14 days, multiple ascending dose	–	subjects with adverse event	0%
O=C(O)CCC(=O)O.[2H]C([2H])([2H])Oc1cc(C)c2[nH]ccc2c1CN1CC[C@@H](C2CC2)C[C@H]1c1ccc(C(=O)O)cc1	multiple ascending dose	healthy Chinese subjects	125 mg twice daily	–	subjects with lymphopenia	0%
COC(=O)/C=C/c1cc(C(=O)NCc2ccc(C)cc2)cc(-c2ccc3ncnn3c2)c1	–	human, liver microsomes	1 µg/mL, 60 min, pH 7.4, 0.5 mg/mL protein, added: NADPH	–	remaining parent compound	~25%
CC(C)[C@@H](CS(=O)(=O)C(C)C)N1C(=O)[C@@](C)(CC(=O)O)C[C@H](c2cccc(Cl)c2)[C@H]1c1ccc(Cl)cc1	–	FVB mice Abcb1a/b knockout, spinal cord	intravenous, 20 mg/kg	–	AUC(0-inf)	8.51 ± 1.01 µg·h/mL
COc1cc2nc(c1)CNCc1cc(OC)cc(n1)CNC2	potentiometry	–	–	–	sum of log protonation constants	15
Cc1ccc(O)c(-n2nc3ccccc3n2)c1	–	human, both sexes	topical, dose not given, sunscreen, age 2-3 years, mean	–	daily dermal uptake	1190 ng/kg body weight/day
CNC(=O)c1cc(Oc2ccc(NC(=O)Nc3cc(C(C)(C)C)nn3-c3ccc4ncccc4c3)c(F)c2)ccn1	measured: worst grade 1	human	oral, dose not given, cycles 1 and 2, High Cmax subgroup	–	patients with nervous system disorder AE	33%
CNC(=O)c1ccc(-c2cnc3ncc(Cc4ccc5ncccc5c4)n3n2)cc1F	–	Japanese patients	oral, 400 mg, grade 3/4	–	Vomiting treatment discontinuation	1%
CN(C)CCc1c[nH]c2ccc(C[C@H]3COC(=O)N3)cc12	–	EpiIntestinal microtissues	5 µM, 2 h, pH 6.5, basolateral pH 7.4	–	Papp apical to basolateral	15.3 nm/s

SMILES	test	test system	conditions	scale	quantity	result
COc1cc(N2CCC3(CCN(C)CC3)CC2)ccc1Nc1ncc(Cl)c(Nc2ccccc2P(C)(C)=O)n1	population PK model	human	oral, base structural model	–	Q/F	16.2 L/h
CO[C@@H]1[C@H](OC(=O)N2CC(CCN3CCOCC3)C2)CC[C@]2(CO2)[C@H]1[C@@]1(C)O[C@@H]1CC=C(C)C	–	human	dose not given, day 28, multiple ascending dose	reference: baseline	prothrombin time change	0.09 ± 0.37 s
O=C(O)CNC(=O)c1ncc(-c2ccc(Cl)cc2)cc1O	–	–	–	–	pKa (basic)	< 2
C[C@@H](N)C1CCN(S(=O)(=O)c2cccc3cnccc23)CC1	–	healthy volunteers	150 mg, fasted	–	participants with headache	0%
O=C(N/N=C/c1ccccc1O)c1ccncc1	–	rat plasma	0.24 µM, 12 h, 5 °C, post-preparative	–	stability	94.7%
Cn1cc(-c2cn3nccc3c(-c3cnn([C@]4(CC#N)C[C@@H](C#N)C4)c3)n2)cn1	–	healthy human fed	200 mg twice daily, day 10	–	mean residence time	17.1 h
COc1cccc(-c2cccc(Nc3nccc(NC4CCCCC4)n3)c2)c1	–	MDCKII-WT cells	10 µM, pH 7.4	–	Papp (B to A)	1.97 ± 1.34 nm/s
O=C1Cc2cc(CCN3CCN(c4nsc5ccccc45)CC3)c(Cl)cc2N1	–	male Hartley guinea pigs, anaesthetized	intravenous, 0.3 mg/kg over 10 min, after infusion	–	mean blood pressure	25 ± 0.4 mmHg
Cc1cc(NC2CCN(C(=O)OC3CCN(C(=O)/C=C/CN(C)C)C3)CC2)n2ncc(C(C)C)c2n1 (stereo not shown)	CTCAE v4.0, measured: Fatigue	patients with advanced solid tumours	oral, dose not given, all schedules, grade 3 or higher	–	patients with TEAE	2%
COc1ccc2c(=O)n(C)c(-c3ccccc3)nc2c1	–	Sprague-Dawley rat, lung	oral, 30 mg/kg, 4 h	–	tissue concentration	not detected
Cc1ccc(C(=O)N(CCCN)C(c2nc3snc(C)c3c(=O)n2Cc2ccccc2)C(C)C)cc1 (stereo not shown)	mucosal inflammation grade ≥3 (CTCAE)	human patients	intravenous, 4 mg/day	–	patients with adverse event	0%
N#Cc1ccc2c(c1)[C@H]1CCCN(C(=O)c3ccc4[nH]cnc4c3)[C@H]1C2	–	human	20 mg, day 7	reference: baseline	cortisol level change	-166 nmol/L
C[C@@H]1COCCN1c1cc(C2([S@](C)(=N)=O)CC2)nc(-c2cc[nH]c3nccc2-3)n1	–	Japanese advanced solid tumour patients	oral, 240 mg twice daily, CTCAE grade ≥3	–	Constipation incidence	0%
O=C(Nc1nc2cccc(-c3ccc(CN4CCS(=O)(=O)CC4)cc3)n2n1)C1CC1	measured: vascular disorders	rheumatoid arthritis patients	oral, 200 mg once daily, 4 weeks, any relatedness	–	treatment-emergent adverse events	0%
Cc1cc(Nc2cc3ncccc3c(N[C@@H]3C[C@H]4CC[C@@H](C3)N4CCC#N)n2)n[nH]1	–	healthy human subjects	oral, 1000 mg, 2 weeks, single ascending dose	–	pruritus incidence	0%
CCc1c(-c2ccccc2)c(-c2ccccc2)nn1-c1ccccc1-c1cccc(OCC(=O)O)c1	–	Sprague-Dawley rat	oral, dose not given	–	AUMC(0-t)	13500 h²·ng/mL and 17200 h²·ng/mL and 17300 h²·ng/mL
CCc1cc(C(=O)NC)c2nccc(N3CCc4c(cc(Cn5ccnc5)cc4-c4cn(C)nc4C(F)(F)F)C3=O)c2c1	–	Sprague Dawley rats	oral, 50 mg/kg once daily, 7 days	–	serum AST activity	102 ± 12.1 U/L
CCN1CCN(Cc2ccc(Nc3ncc(F)c(-c4cc(F)c5nc6n(c5c4)[C@H](C)CCC6)n3)nc2)CC1	–	human, plasma	100 mg single dose, median	–	Tmax	3.95 h

A few entries again:
SMILES	test	test system	conditions	scale	quantity	result
CCN1CCN(Cc2ccc(Nc3ncc(F)c(-c4cc(F)c5nc6n(c5c4)[C@H](C)CCC6)n3)nc2)CC1	–	human, plasma	100 mg single dose, median	–	Tmax	3.95 h
COc1ccc(C[C@@H](C)[C@@H](C)Cc2ccc(OC)c(OC)c2)cc1OC	–	beagle dog female, plasma	oral, 1000 mg/kg/day, day 28, median	–	Tmax	1 h
CC(C)[C@@H](CS(=O)(=O)C(C)C)N1C(=O)[C@@](C)(CC(=O)O)C[C@H](c2cccc(Cl)c2)[C@H]1c1ccc(Cl)cc1	–	FVB mice Abcb1a/b knockout, spinal cord	intravenous, 20 mg/kg	–	AUC(0-inf)	8.51 ± 1.01 µg·h/mL
O=C(O)CNC(=O)c1ncc(-c2ccc(Cl)cc2)cc1O	–	–	–	–	pKa (basic)	< 2
C[C@@H](O)CCOC(=O)C[C@@H](C)O	–	human	oral drink, 60 min post dose, mean	–	mean arterial pressure	80 mmHg
